Published values pooled from the literature.
Protocols differ between the studies behind these lines. ± gives the spread as reported. In brackets after ≈: the same amount, converted by molar mass.
Organism: Staphylococcus aureus

| Compound | test | system | conditions | how to read | endpoint | value |
| --- | --- | --- | --- | --- | --- | --- |
| Oc1c(Br)cc(Br)c2nc3cc(C(F)(F)F)ccc3nc12 | Calgary Biofilm Device | MRSA 1707 | biofilm |  | MBEC | 6.25 µM |
| O=[N+]([O-])c1ccc2c(c1)C=[N+]1N3C(=[O+][Cu-2]1([Cl])[O]2)c1ccccc1NC3c1cc([N+](=O)[O-])ccc1O (stereo not shown) | mature biofilm | ATCC 29213 | 1 × MIC |  | biofilm eradication | 87.3 ± 4% |
| Cc1cccc([N+](=O)[O-])c1NC(=O)CSc1nc2ccccc2c(=O)n1-c1ccc(S(N)(=O)=O)cc1 | microbial growth, well diffusion | ATCC29213 | 500 µg/mL, 24 h |  | inhibition zone | 28 mm |
| CC[P+](CC)(CC)[Au-][S][C@@H]1O[C@H](COC(C)=O)[C@@H](OC(C)=O)[C@H](OC(C)=O)[C@H]1NC(=O)C(Cl)(Cl)Cl |  | JE2 USA300 |  | reference: auranofin | fold enhancement | ≤ 4 |
| Cn1c(SCCN2CCCC2)nnc1C12CC3CC(CC(C3)C1)C2 |  | IFO 3060 | 200 µg/disc, 24 h, 37 °C |  | inhibition zone diameter | 16 mm |
| COc1c2c(cc3oc(=O)cc(-c4ccc(O)cc4)c13)C(=O)c1cc(C)cc(O)c1C2=O | microbial growth, disc diffusion | MTCC96 | 100 µg/disc |  | inhibition zone | 8 mm |
| Cc1c(CN(C)C(=O)/C=C/c2cnc3c(c2)CC(N)C(=O)N3)oc2ccccc12 (stereo not shown) |  | ATCC 29213 | added: human serum | reference: without serum | MIC fold increase | 2 fold |
| CCc1ccccc1NC(=O)CSc1nc2ccccc2c(=O)n1-c1ccc(S(N)(=O)=O)cc1 | microbial growth, well diffusion | MRSA | 500 µg/mL, 24 h |  | inhibition zone | 14 mm |
| CC(C)C[C@H](NC(=O)[C@H](CC(N)=O)NC(=O)[C@H](CCCNC(=N)N)NC(=O)[C@@H](CC(C)C)NC(=O)[C@H](Cc1ccc(-c2ccccc2)cc1)NC(=O)[C@H](CC(=O)O)NC(=O)[C@H](CCCCN)NC(=O)[C@@H](CC(C)C)NC(=O)[C@H](CCCNC(=N)N)NC(=O)[C@H](CCC(N)=O)NC(=O)[C@@H](NC(=O)[C@@H](CC(C)C)NC(=O)[C@H](CCCNC(=N)N)NC(=O)[C@H](CCCCN)NC(=O)[C@H](Cc1ccc(-c2ccccc2)cc1)NC(=O)CN)C(C)C)C(=O)N[C@H](C(N)=O)C(C)C | XTT | USA300 LAC, 48 h preformed biofilm | 1 × MIC, 24 h |  | viable biofilm cells | ~50% |
| COc1c(CC=C(C)C)c(O)cc2c1-c1oc3c(CC=C(C)C)c(O)ccc3c1CO2 |  | ATCC 25923 | concentration not given |  | antibacterial activity | inactive |
| CCCCCCCCCCCCCCCCCC(=O)N[C@@H](CCCCN)C(=O)N[C@@H](CCCCN)C(=O)N(CCCCN)CC(=O)N[C@@H](CCCCN)C(=O)N[C@@H](CCCCN)C(N)=O |  | MRSA JE2, Galleria mellonella larvae | 50 mg/kg, 4 d |  | survival | 90% |
| CN(C)c1cc(CN2CCc3ccccc3C2)c(O)c2c1C[C@H]1C[C@H]3[C@H](N(C)C)C(O)=C(C(N)=O)C(=O)[C@@]3(O)C(O)=C1C2=O |  | MRSA 5, Tet M, mouse serum |  | reference: no serum | MIC shift in serum | > 7 dilutions |
| c1ccc(CSc2nnc(C34CC5CC(CC(C5)C3)C4)n2-c2ccccc2)cc1 |  | IFO 3060 | 200 µg/disc, 24 h, 37 °C |  | inhibition zone diameter | 13 mm |
| CNC(CC(C)C)C(=O)NC1C(=O)NC(CC(N)=O)C(=O)NC2C(=O)NC3C(=O)NC(C(=O)NC(C(=O)O)c4cc(O)cc(O)c4-c4cc3ccc4O)C(O)c3ccc(c(Cl)c3)Oc3cc2cc(c3OC2OC(CO)C(O)C(O)C2OC2CC(C)(NC(=O)CCCCCC[N+](C)(C)C)C(O)C(C)O2)Oc2ccc(cc2Cl)C1O (stereo not shown) | agar dilution | MRSA3 |  | reference: vancomycin, higher = more active | MIC fold improvement | 8 fold |
| O=C(Oc1cccccc1=O)c1ccc(Cl)cc1 | time-kill | ATCC 29213 | 16 x MIC80, 24 h |  | reduction in viable count | 2 log10 CFU |
| O=C(O)CN1C(=O)/C(=C/c2ccc(-c3ccc(N(c4ccccc4)c4ccccc4)cc3)cc2)NC1=S | broth microdilution | ATCC 25923 |  |  | MBC/MIC ratio | 1 |

| Compound | test | system | conditions | how to read | endpoint | value |
| --- | --- | --- | --- | --- | --- | --- |
| Oc1c(Br)c(Cl)c(Br)c2nc3c(C(F)(F)F)cc(C(F)(F)F)cc3nc12 | microbial killing | MRSA |  |  | MBC | 25 µM |
| CNC(CC(C)C)C(=O)NC1C(=O)NC(CC(N)=O)C(=O)NC2C(=O)NC3C(=O)NC(C(=O)NC(C(=O)O)c4cc(O)cc(O)c4-c4cc3ccc4O)C(O)c3ccc(c(Cl)c3)Oc3cc2cc(c3OC2OC(CO)C(O)C(O)C2OC2CC(C)(NC(=O)CCCCCCCC[n+]3ccccc3)C(O)C(C)O2)Oc2ccc(cc2Cl)C1O (stereo not shown) | agar dilution | MRSA5 |  | reference: vancomycin, higher = more active | MIC fold improvement | 8 fold |
| CC[C@H](C)[C@H](N)C(=O)N[C@@H](CC(C)C)C(=O)N1CCC[C@H]1C(=O)N[C@@H](Cc1c[nH]c2ccccc12)C(=O)N[C@@H](CCCCN)C(=O)N[C@@H](Cc1c[nH]c2ccccc12)C(=O)N1CCC[C@H]1C(=O)N[C@@H](Cc1c[nH]c2ccccc12)C(=O)N[C@@H](Cc1c[nH]c2ccccc12)C(=O)N1CCC[C@H]1C(=O)N[C@@H](Cc1c[nH]c2ccccc12)C(=O)N[C@@H](CCCNC(=N)N)C(=O)N[C@@H](CCCNC(=N)N)C(N)=O | bactericidal activity | ATCC 29213, 5 mM HEPES-glucose buffer | 10 µM, 2 h, pH 7.4, 37 °C |  | log reduction viability | > 5 log |
| O=C(O)c1ccc(-n2cc(/C=N/Nc3cccc(Cl)c3F)c(-c3ccc4ccccc4c3)n2)cc1 | microbial killing, broth dilution | MRSA |  |  | MBC | 12.5 µg/mL |
| CC1=C[C@@H](C)[C@H]2[C@@H]3C(=O)C(Cl)(Cl)C(=O)[C@H](C)C(=O)O[C@@H](C)/C=C/C=C\[C@@H](C)[C@@H]3C=C[C@@H]2C1 |  | MSSA and MRSA clinical isolates |  |  | MIC90 | 0.1 µg/mL (≈ 0.209 µM) |
| CCCCCCCCCCCCCC(=O)N[C@@H](CCCNC(=N)N)C(=O)N[C@@H](CCCNC(=N)N)C(=O)N[C@@H](CCCNC(=N)N)C(N)=O |  | USA300 | 6.25 µM |  | time to kill | ≤ 90 min |
| CC[C@H](C)[C@H](NC(=O)[C@H](CCCN)NC(=O)[C@H](CC(N)=O)NC(=O)[C@H](Cc1c[nH]c2ccccc12)NC(=O)[C@H](Cc1ccccc1)NC(=O)[C@H](CCCN)NC(=O)[C@H](CCCCNC(=N)N)NC(=O)[C@H](CC(C)C)NC(=O)[C@H](Cc1c[nH]c2ccccc12)NC(=O)[C@H](CCCN)NC(=O)[C@H](CCCCNC(=N)N)NC(=O)[C@H](CC(C)C)NC(=O)CNC(C)=O)C(=O)N[C@@H](CCCN)C(=O)N[C@@H](CCCCNC(=N)N)C(N)=O | time-kill |  | 2 x MIC |  | time to complete kill | ≤ 6 h |
| CCCCCCCCCC(=O)N[C@@H](Cc1c[nH]c2ccccc12)C(=O)N[C@H](CC(N)=O)C(=O)N[C@@H](CC(=O)O)C(=O)N[C@@H]1C(=O)NCC(=O)N[C@@H](CCCN)C(=O)N[C@@H](CC(=O)O)C(=O)N[C@H](C)C(=O)N[C@@H](CC(=O)O)C(=O)NCC(=O)N[C@H](CO)C(=O)N[C@@H]([C@H](C)CC(=O)O)C(=O)N[C@@H](CC(=O)c2ccccc2N)C(=O)O[C@@H]1C | XTT | MRSA ATCC BAA-1556 | 2 x MIC | reference: untreated | biofilm reduction | ~48% |
| CC(C)(C)OC(=O)N[C@@H](Cc1cnc(C23CC4CC(CC(C4)C2)C3)[nH]1)C(=O)N[C@@H](Cc1c[nH]c2ccccc12)C(=O)N[C@@H](Cc1cnc(C23CC4CC(CC(C4)C2)C3)[nH]1)C(=O)NCc1ccccc1 |  |  |  |  | IC50 | 3.45 to 4.94 µg/mL |
| COc1cc(NC(=O)CSc2nc3ccccc3c(=O)n2-c2ccc(S(N)(=O)=O)cc2)cc(OC)c1 | microbial growth, well diffusion | ATCC29213 | 500 µg/mL, 24 h |  | inhibition zone | 27 mm |
| CN[C@H](CC(C)C)C(=O)N[C@H]1C(=O)N[C@@H](CC(N)=O)C(=O)N[C@H]2C(=O)N[C@H]3C(=O)N[C@H](C(=O)N[C@H](C(=O)O)c4cc(O)cc(O)c4-c4cc3ccc4O)[C@H](O)c3ccc(c(Cl)c3)Oc3cc2cc(c3O[C@@H]2O[C@H](CO)[C@@H](O)[C@H](O)[C@H]2O[C@H]2C[C@](C)(NCc3ccc(C(=O)OCCCCCCN(Cc4ccccn4)Cc4ccccn4)cc3)[C@H](O)[C@H](C)O2)Oc2ccc(cc2Cl)[C@H]1O |  | MRSA exponential phase | MIC, 12 h |  | viable count reduction | 2.4 log CFU/mL |
| CN1/C(=C/C=C/c2cc(-c3ccccc3)cc(-c3ccccc3)[o+]2)C(C)(C)c2ccccc21 | protein synthesis | NCTC 8325 | added: reserpine 20 µg/mL |  | IC50 | 0.39 µg/mL |
| CCCCCC1CC2CCCC3CC(C)N=C(N1)N32 (stereo not shown) | bacterial growth | MRSA ATCC 33591 |  |  | IC50 | 7.07 µM |
| O=C1c2ccccc2NC(c2ccc(O)c(O)c2)N1/N=C/c1ccc(O)c(O)c1 (stereo not shown) | respiratory activity, inhibitor, MTT | ATCC 29213 | concentration not given | at least 70% inhibition | lowest effective concentration | 0.5 × MIC |
| O=C(CCc1cc(O)c(O)c(O)c1)NCCCCCCCCCC[P+](c1ccccc1)(c1ccccc1)c1ccccc1 | propidium iodide uptake | XU212 | half MIC, 1 h |  | cells with damaged membrane | 26.1% |
